Measurements of several laboratories.
Lines come from different studies, so protocols differ. Several values in a cell are separate wells, animals, samples, runs or records. ± marks the error that the study gave.
Chain of UniProt P07947 (whole entry, unmodified, looked up): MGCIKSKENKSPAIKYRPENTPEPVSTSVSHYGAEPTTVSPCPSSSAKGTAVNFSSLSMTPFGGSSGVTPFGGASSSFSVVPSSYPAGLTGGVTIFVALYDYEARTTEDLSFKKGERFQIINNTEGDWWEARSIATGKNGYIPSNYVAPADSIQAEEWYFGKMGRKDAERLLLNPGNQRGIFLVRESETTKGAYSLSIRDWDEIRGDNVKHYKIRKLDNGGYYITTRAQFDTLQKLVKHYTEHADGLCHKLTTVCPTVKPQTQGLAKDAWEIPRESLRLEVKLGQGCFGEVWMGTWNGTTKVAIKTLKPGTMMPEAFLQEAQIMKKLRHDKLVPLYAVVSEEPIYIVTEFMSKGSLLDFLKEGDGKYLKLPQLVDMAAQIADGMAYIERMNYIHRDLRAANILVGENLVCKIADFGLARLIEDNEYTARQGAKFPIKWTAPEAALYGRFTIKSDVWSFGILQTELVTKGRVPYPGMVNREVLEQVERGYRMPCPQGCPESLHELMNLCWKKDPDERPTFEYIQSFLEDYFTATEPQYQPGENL
Chain of UniProt P04049 (whole entry, looked up): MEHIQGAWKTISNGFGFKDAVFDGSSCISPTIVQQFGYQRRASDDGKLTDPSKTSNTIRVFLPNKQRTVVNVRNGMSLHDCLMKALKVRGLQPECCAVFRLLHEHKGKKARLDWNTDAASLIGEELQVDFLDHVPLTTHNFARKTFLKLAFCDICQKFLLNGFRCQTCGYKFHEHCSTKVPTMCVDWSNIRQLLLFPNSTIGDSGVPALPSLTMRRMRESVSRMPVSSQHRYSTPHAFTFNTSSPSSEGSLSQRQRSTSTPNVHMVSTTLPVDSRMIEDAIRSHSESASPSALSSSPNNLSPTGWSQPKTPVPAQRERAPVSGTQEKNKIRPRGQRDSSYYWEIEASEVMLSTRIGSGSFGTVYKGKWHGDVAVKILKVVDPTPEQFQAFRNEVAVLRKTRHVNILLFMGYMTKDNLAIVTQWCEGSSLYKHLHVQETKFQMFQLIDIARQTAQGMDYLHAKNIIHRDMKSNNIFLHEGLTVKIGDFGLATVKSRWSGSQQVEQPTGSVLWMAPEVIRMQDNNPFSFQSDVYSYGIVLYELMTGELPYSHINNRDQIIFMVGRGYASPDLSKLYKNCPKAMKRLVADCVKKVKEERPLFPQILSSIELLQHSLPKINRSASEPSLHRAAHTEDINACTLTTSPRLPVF
Chain of UniProt O95382 (whole entry, looked up): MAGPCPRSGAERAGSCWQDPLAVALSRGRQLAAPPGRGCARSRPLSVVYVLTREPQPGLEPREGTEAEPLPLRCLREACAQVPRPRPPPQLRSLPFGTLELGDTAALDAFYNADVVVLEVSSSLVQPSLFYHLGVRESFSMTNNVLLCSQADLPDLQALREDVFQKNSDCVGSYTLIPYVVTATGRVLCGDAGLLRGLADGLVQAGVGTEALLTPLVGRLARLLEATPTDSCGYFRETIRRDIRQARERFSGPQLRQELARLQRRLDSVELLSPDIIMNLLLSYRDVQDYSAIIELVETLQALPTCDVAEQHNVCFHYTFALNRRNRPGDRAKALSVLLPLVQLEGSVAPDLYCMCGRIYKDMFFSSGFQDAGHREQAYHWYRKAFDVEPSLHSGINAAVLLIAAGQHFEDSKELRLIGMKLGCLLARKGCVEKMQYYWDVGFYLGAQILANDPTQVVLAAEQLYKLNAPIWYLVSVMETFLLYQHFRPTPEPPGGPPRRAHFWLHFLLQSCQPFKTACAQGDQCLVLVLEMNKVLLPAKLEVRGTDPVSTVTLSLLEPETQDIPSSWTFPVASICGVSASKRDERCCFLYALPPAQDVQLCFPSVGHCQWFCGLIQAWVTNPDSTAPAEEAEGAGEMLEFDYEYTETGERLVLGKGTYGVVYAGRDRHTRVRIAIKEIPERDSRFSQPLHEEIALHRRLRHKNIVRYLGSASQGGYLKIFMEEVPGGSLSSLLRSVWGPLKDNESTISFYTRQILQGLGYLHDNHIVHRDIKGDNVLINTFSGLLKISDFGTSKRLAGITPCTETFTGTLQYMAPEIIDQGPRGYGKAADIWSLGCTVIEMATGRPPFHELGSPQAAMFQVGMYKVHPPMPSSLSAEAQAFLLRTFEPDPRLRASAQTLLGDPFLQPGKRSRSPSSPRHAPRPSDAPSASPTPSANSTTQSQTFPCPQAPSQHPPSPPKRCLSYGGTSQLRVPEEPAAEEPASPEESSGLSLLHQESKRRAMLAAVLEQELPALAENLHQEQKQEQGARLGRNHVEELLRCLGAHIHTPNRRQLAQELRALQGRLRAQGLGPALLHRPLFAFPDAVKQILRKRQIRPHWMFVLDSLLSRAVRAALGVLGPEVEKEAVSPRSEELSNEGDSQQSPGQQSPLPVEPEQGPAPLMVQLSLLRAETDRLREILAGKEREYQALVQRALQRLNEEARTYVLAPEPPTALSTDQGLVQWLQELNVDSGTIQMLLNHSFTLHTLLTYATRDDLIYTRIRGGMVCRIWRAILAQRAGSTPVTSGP
Chain of UniProt Q86VL8 (whole entry, looked up): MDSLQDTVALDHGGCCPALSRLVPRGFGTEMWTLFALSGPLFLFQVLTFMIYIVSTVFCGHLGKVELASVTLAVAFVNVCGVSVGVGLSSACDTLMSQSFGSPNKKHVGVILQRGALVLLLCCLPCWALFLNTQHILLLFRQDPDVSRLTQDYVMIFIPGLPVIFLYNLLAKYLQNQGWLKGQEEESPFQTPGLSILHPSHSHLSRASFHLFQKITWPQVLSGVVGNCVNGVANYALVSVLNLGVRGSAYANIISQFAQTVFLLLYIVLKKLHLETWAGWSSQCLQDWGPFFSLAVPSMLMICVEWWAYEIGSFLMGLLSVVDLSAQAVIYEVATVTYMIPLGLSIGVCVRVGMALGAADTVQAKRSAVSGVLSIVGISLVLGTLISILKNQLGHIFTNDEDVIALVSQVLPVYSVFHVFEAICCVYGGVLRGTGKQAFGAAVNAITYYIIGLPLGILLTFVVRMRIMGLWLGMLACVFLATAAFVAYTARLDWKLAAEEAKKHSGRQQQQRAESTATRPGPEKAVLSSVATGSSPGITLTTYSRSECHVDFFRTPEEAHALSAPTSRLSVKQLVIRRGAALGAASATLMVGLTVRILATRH

SMILES | target or system | test | system | setting | how to read | endpoint | result
CC(=O)NCCCC[C@@H]1NC(=O)[C@H](Cc2c[nH]c3c(C)cccc23)NC(=O)[C@H]([C@@H](C)O)NC(=O)[C@H](CC(N)=O)NC(=O)[C@@H](NC(C)=O)C(C)(C)SSC(C)(C)[C@@H](C(=O)N[C@@H](Cc2ccc(OCCN)cc2)C(=O)N[C@@H](Cc2ccc3ccccc3c2)C(=O)NC2(C(=O)N[C@@H](CCC(=O)O)C(=O)N[C@@H](CC(N)=O)C(=O)N[C@@H](Cc3cccnc3)C(=O)N(C)CC(N)=O)CCOCC2)NC1=O | Multidrug and toxin extrusion protein 2 (SLC47A2, Homo sapiens, UniProt Q86VL8) | substrate | MDCK-II overexpressing transporter | 5 µM, 30 min, with: 100 µM pyrimethamine |  | uptake rate | 0.699 ± 0.044 pmol/mg/min
CC(C)N1CCCCC1C(=O)NC(Cc1ccc(-c2ccccc2)cc1)B(O)O (stereo not drawn) |  |  | SCID mouse, P. falciparum model, blood | oral, 25 mg/kg, 2 h |  | blood concentration | 89 ng/mL
CC1COC2=C1C(=O)C(=O)c1c2ccc2c1C(OC(=O)CNC(=O)C(N)CO)CCC2(C)C (mixture of isomers) |  |  | saline with 20% PEG 400 | 24 h, 25 °C |  | equilibrium solubility | 904 µg/mL
CC(C)[C@H](NC(=O)[C@@H](NC(=O)[C@H](CCCNC(=N)N)NC(=O)[C@H](CCCNC(=N)N)NC(=O)[C@H](CCCNC(=N)N)NC(=O)[C@H](CCC(N)=O)NC(=O)[C@H](CCCNC(=N)N)NC(=O)[C@H](CCCNC(=N)N)NC(=O)[C@H](CCCCN)NC(=O)[C@H](CCCCN)NC(=O)[C@H](CCCNC(=N)N)NC(=O)CN)[C@@H](C)O)C(=O)N[C@H](C(=O)N[C@@H](CO)C(=O)N1CCC[C@H]1C(=O)O)[C@@H](C)O |  |  | ICR mice, male, stomach | intranasal, 5 mg/kg daily, 4 weeks |  | organ weight | 0.482 ± 0.075 g
CC(C)[C@@H]1NC(=O)CNC(=O)[C@H](CC(N)=O)NC(=O)[C@H](CCCNC(=N)N)NC(=O)[C@H](Cc2ccc(O)cc2)NC(=O)[C@H](C(C)C)NC(=O)[C@@H](NC(=O)[C@@H](NC(=O)[C@H](CC(N)=O)NC(=O)[C@H](Cc2c[nH]c3ccccc23)NC(=O)[C@H](C)NC(=O)[C@H](Cc2ccccc2)NC(=O)CNC(=O)[C@H](CCCCN)NC(=O)[C@H](Cc2ccccc2)NC(=O)[C@H](Cc2ccccc2)NC(=O)[C@H](CCCCN)NC(=O)OCC2c3ccccc3-c3ccccc32)C(C)C)CSSC[C@@H](C(=O)N[C@@H](Cc2c[nH]cn2)C(=O)N[C@@H](CCCNC(=N)N)C(=O)N[C@@H](CCCNC(=N)N)C(=O)N[C@@H](C)C(=O)N[C@@H](CC(N)=O)C(N)=O)NC(=O)[C@H](C(C)C)NC(=O)[C@H](CCCNC(=N)N)NC1=O |  | HPLC | mouse kidney homogenate 50 mg/mL | 2.00 h, 37 °C |  | peptide remaining | 76.2%
COc1ccc([C@@H]2CC(=O)c3c(O)cc(O[C@@H]4O[C@H](CO)[C@@H](O)[C@H](O)[C@H]4O[C@@H]4O[C@@H](C)[C@H](O)[C@@H](O)[C@H]4O)cc3O2)cc1O |  |  | Sprague-Dawley rats, obese, plasma | 100 mg/kg daily, 15 days | reference: lean rats | plasma metabolite level | no effect
Cc1ccccc1-c1ccc(-c2nc(-c3ccc(CN(C)CCCC(=O)O)c([18F])c3)no2)cc1C(F)(F)F |  |  | rat, spleen | 5 min |  | tracer uptake | 1.1 %ID/g
CC(C)[C@H]1NC(=O)C[C@H]2/C=C/CCSSC[C@@H](NC1=O)C(=O)N[C@H](Cc1cccc3ccccc13)C(=O)NCC(=O)O2 | Tyrosine-protein kinase Yes (YES1, Homo sapiens, UniProt P07947, T348I) | enzyme activity, inhibitor |  | 10 µM |  | inhibition | -2.3%
CN(C)[C@H]1C[C@@]23CC[C@@]4(O2)C(=CC[C@]2(C)[C@@H](c5ccc6ccncc6c5)CC[C@H]24)C=C3[C@@H](O)[C@@H]1O | Mitogen-activated protein kinase kinase kinase 6 (MAP3K6, Homo sapiens, UniProt O95382) | ATP probe labelling, inhibitor, KiNativ profiling |  | 1 µM |  | inhibition | -0.2%
CS(C)(=O)=Nc1ccc(-c2ccc(-c3nc4cc(O[C@@H]5CO[C@H]6[C@@H]5OC[C@H]6O)[nH]c4cc3F)cc2)cc1 | RAF proto-oncogene serine/threonine-protein kinase (RAF1, Homo sapiens, UniProt P04049) | enzyme activity, inhibitor |  | 10 µM |  | inhibition | 17%
Cc1cc(-c2ccc3ccccc3c2)nnc1NCCN1CCN(C)CC1 | Caco-2 | Caco-2 permeability | apical to basolateral | 5 µM, 0.5 h |  | recovery | 50.5%
C=Cc1c(C)c2cc3nc(c(CC(=O)[O-])c4[n-]c(cc5nc(cc1[n-]2)C(C)=C5CC)c(C)c4C(=O)[O-])C(CCC(=O)[O-])C3C.[Cu+2].[Na+].[Na+].[Na+] (stereo not drawn) |  |  | Wistar rat, male | oral, 1000 mg/kg daily, 28 days |  | haemoglobin | 14.4 ± 0.7 g/dL
O=C(O)CC[C@H](NC(=O)[C@H](CCC(=O)O)NC(=O)[C@H](CCC(=O)O)NC(=O)[C@H](CCC(=O)O)NC(=O)[C@H](CCC(=O)O)NC(=O)CNC(=O)[C@H](CCC(=O)O)NC(=O)CNC(=O)[C@H](CCC(=O)O)NC(=O)[C@@H](Cc1ccccc1)NC(=O)[C@@H](Cc1ccccc1)NC(=O)Cc1ccc2ccccc2c1)C(=O)O |  | circular dichroism | PBS | 500 µM, pH 9, above CMC |  | first negative CD peak wavelength | 202 nm
CC(=O)N[C@H](C(=O)N[C@@H](CCCC(=O)OC(C)(C)C)C(=O)N[C@@H](CCC1CCCCC1)C(=O)N[C@@H](CC(=O)O)C(=O)COC(=O)c1c(C)cccc1C)C(C)(C)C |  |  | C57BL/6N mouse, female, whole blood | intraperitoneal, dose not given, 1 h |  | blood concentration | 740 µM and 570 µM
O=C(CN1CCN(CC(=O)NCP(=O)([O-])[O-])CCN(CC(=O)NCP(=O)([O-])[O-])CCN(CC(=O)NCP(=O)([O-])[O-])CC1)NCP(=O)([O-])[O-].[Gd+3] |  |  | Sprague-Dawley rat, bone | intravenous, dose not given, 2 h |  | biodistribution | 32.9 ± 8.45 % injected dose/organ
CC[C@H](C)[C@H](NC(=O)[C@H](CCCCN)NC(=O)CNC(=O)[C@H](CC(C)C)NC(=O)[C@H](Cc1ccccc1)NC(=O)[C@H](CCCCN)NC(=O)[C@H](CO)NC(=O)[C@H](Cc1ccccc1)NC(=O)[C@H](Cc1c[nH]c2ccccc12)NC(=O)[C@H](CCC(N)=O)NC(=O)[C@@H](NC(=O)[C@H](Cc1ccccc1)NC(=O)CCCCCNC(=O)CN1CCN(CC(=O)O)CCN(CC(=O)O)CCN(CC(=O)O)CC1)C(C)C)C(=O)N[C@@H](CCC(=O)O)C(=O)N1CCC[C@H]1C(=O)N[C@@H](CC(=O)O)C(=O)N[C@H](C(=O)N[C@@H](CO)C(=O)N[C@@H](CCC(N)=O)C(=O)N[C@H](C(=O)N[C@@H](CCC(N)=O)C(=O)N[C@@H](CC(=O)O)C(=O)N1CCC[C@H]1C(=O)N[C@@H](CC(N)=O)C(=O)N[C@@H](CC(=O)O)C(=O)N[C@@H](CCC(N)=O)C(=O)N[C@@H](Cc1ccc(O)cc1)C(=O)N[C@@H](CCC(=O)O)C(=O)N1CCC[C@H]1C(=O)N[C@@H](Cc1ccccc1)C(=O)O)C(C)C)C(C)C [copper-64 labelled] |  |  | BALB/c mice, male, CT26 tumour-bearing, small intestine | 2 h, anti-PD1 plus anti-CTLA4 treated |  | tissue uptake | 4.28 ± 1.3 %ID/g
Cc1nc2cccc(OCC(C)(C)C(=O)NC(C)C)c2c(N)c1C(=O)[O-].[Na+] | Escherichia coli | reverse mutation, plate incorporation | WP2 uvrA | 0.32 mg/plate, without S9 |  | revertant colonies | 29 ± 3 colonies/plate
CC(O)CN.O=C(O)C(Cl)Cl | Eclipta prostrata |  |  | 15 mg/mL, 21 days, post-emergence, greenhouse |  | herbicidal inhibition | 42%
C#CCCCNC(=O)CC(Cc1ccc(F)cc1)NC(=O)C(Cc1ccc(Cl)cc1Cl)NC(=O)C(N)Cc1ccccc1C#N (stereo not drawn) |  |  | CD-1 mouse, liver microsomes | 1 µM, time not given, epoxide hydrolase conditions |  | remaining compound | 57%
C[C@H](O)[C@@H](NC(=O)[C@H]1CCCN1C(=O)[C@@H](CCCCN)NC(=O)[C@@H](CO)NC(=O)[C@@H](Cc1ccc(O)cc1)NC(=O)[C@@H](CC(N)=O)NC(=O)CCOCCOCCOCCNC(=O)CN1CCN(CC(=O)O)CCN(CC(=O)O)CCN(CC(=O)O)CC1)C(=O)N[C@H](CC(=O)O)C(=O)N[C@H](CCCNC(=N)N)C(=O)N[C@H](CCC(N)=O)C(=O)N[C@H](Cc1ccc(O)cc1)C(=O)N[C@H](Cc1c[nH]cn1)C(=O)N[C@H](Cc1ccccc1)C(N)=O [gallium-68 labelled] |  |  | BALB/c nude mice U-87 MG tumour, brain | intravenous, 1.85 MBq, 1 h, radiolabelled |  | tissue uptake | 0.03 ± 0.01 %ID/g
COc1ccccc1-c1n[nH]c2nc(NC3CCN(C(=O)Cc4ccc(F)cc4F)CC3)ncc12 |  | bead binding, competition bead pull-down, measured: LMJF.21.1090 | Leishmania donovani axenic amastigote extract | 10 µM | reference: vehicle | relative abundance | 0.95
COc1cnc2cccc(N3CCc4c(cc(Cn5ccnc5)cc4-c4cn(C)nc4C(F)(F)F)C3=O)c2c1 |  |  | BALB/c nude mice, MV4-11 xenograft | intraperitoneal, 50 mg/kg, day 31 |  | body weight | 22.4 g and 21.5 g and 22.2 g and 23 g and 23.2 g
CSCC[C@@H]1NC(=O)[C@H](C(C)C)NC(=O)[C@H](CCCNC(=N)N)NC(=O)[C@@H]2CCCN2C(=O)CNC(=O)[C@@H](NC(=O)CNC(=O)[C@H](CO)NC(=O)CNC(=O)[C@H](CO)NC(=S)Nc2ccc(C[C@H]3CN(CC(=O)O)CCN(CC(=O)O)CCN3CC(=O)O)cc2)CSSC[C@@H](C(N)=O)NC(=O)[C@@H]2CCCN2C(=O)CNC(=O)[C@H](CCC(=O)O)NC(=O)[C@H](CC(=O)O)NC(=O)[C@H](CC(=O)O)NC(=O)CNC(=O)[C@H](CC(C)C)NC(=O)[C@H](Cc2c[nH]cn2)NC(=O)[C@H](CC(C)C)NC(=O)CNC(=O)[C@H](Cc2c[nH]cn2)NC1=O [copper-64 labelled] |  | dynamic PET | CD rat, myocardial infarction model, left ventricular blood pool | intravenous, 18.5 MBq, 15 to 60 min |  | half-life | 24.3 ± 1.5 min
CC(C)C[C@@H](NC(=O)[C@@H](CCCNC(=N)N)NC(=O)[C@@H](Cc1c[nH]cn1)NC(=O)[C@@H](Cc1c[nH]c2ccccc12)NC(=O)[C@@H](Cc1c[nH]cn1)NC(=O)[C@@H](Cc1ccccc1)NC(=O)[C@H](NC(=O)[C@@H](Cc1ccc(O)cc1)NC(=O)CNC(=O)CNC(=O)CCOCCOCCOCCNC(=O)CN1CCN(CC(=O)O)CCN(CC(=O)O)CC1)[C@H](C)O)C(=O)N[C@H](CC(N)=O)C(=O)N1CCC[C@@H]1C(=O)O [gallium-68 labelled] |  |  | C57BL/6 mice, male | intravenous, 1.85 MBq, 60 min | reference: tumour over lung | tissue ratio | 5.31 ± 0.87
C#Cc1c(F)ccc2cc(O)cc(-c3ncc4c(N5CC6CCC(C5)N6C(=O)OC(C)OC(=O)C5CCCC5)nc(OC[C@@]56CCCN5C[C@H](F)C6)nc4c3F)c12 (stereo partly drawn) |  | chemical stability | simulated intestinal fluid | 1 µM, 30 min |  | compound remaining | 88.9%
O=C1NC2(CC2)COc2ncc(F)cc2[C@H]2COCCN2c2ccn3ncc1c3n2 |  |  | Sprague-Dawley rat, female, kidneys | oral, 20 mg/kg/day, 4 weeks, end of treatment |  | organ-to-brain weight ratio | 112 ± 9.44%
CC(C)(C)C(=O)OCOP(=O)(OCOC(=O)C(C)(C)C)C1CCCN(O)C1=O (stereo not drawn) | OVCAR-5 |  |  |  |  | GI50 | 2010 nM

Some of these lines once more:
SMILES | target or system | test | system | setting | how to read | endpoint | result
C=Cc1c(C)c2cc3nc(c(CC(=O)[O-])c4[n-]c(cc5nc(cc1[n-]2)C(C)=C5CC)c(C)c4C(=O)[O-])C(CCC(=O)[O-])C3C.[Cu+2].[Na+].[Na+].[Na+] (stereo not drawn) |  |  | Wistar rat, male | oral, 1000 mg/kg daily, 28 days |  | haemoglobin | 14.4 ± 0.7 g/dL
CC(C)C[C@@H](NC(=O)[C@@H](CCCNC(=N)N)NC(=O)[C@@H](Cc1c[nH]cn1)NC(=O)[C@@H](Cc1c[nH]c2ccccc12)NC(=O)[C@@H](Cc1c[nH]cn1)NC(=O)[C@@H](Cc1ccccc1)NC(=O)[C@H](NC(=O)[C@@H](Cc1ccc(O)cc1)NC(=O)CNC(=O)CNC(=O)CCOCCOCCOCCNC(=O)CN1CCN(CC(=O)O)CCN(CC(=O)O)CC1)[C@H](C)O)C(=O)N[C@H](CC(N)=O)C(=O)N1CCC[C@@H]1C(=O)O [gallium-68 labelled] |  |  | C57BL/6 mice, male | intravenous, 1.85 MBq, 60 min | reference: tumour over lung | tissue ratio | 5.31 ± 0.87
CC1COC2=C1C(=O)C(=O)c1c2ccc2c1C(OC(=O)CNC(=O)C(N)CO)CCC2(C)C (mixture of isomers) |  |  | saline with 20% PEG 400 | 24 h, 25 °C |  | equilibrium solubility | 904 µg/mL
